Published values collected from several papers.
Parts stem from different laboratories: compare values within a part only. Changes are numbered by the printed parent chain.
UniProt Q8H174, sequence (whole entry, looked up): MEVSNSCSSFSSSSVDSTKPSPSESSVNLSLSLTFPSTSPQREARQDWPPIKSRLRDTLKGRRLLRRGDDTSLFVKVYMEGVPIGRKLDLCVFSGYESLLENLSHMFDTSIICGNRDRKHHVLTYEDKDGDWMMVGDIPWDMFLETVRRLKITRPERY
UniProt Q9LQE8, sequence (whole entry, looked up): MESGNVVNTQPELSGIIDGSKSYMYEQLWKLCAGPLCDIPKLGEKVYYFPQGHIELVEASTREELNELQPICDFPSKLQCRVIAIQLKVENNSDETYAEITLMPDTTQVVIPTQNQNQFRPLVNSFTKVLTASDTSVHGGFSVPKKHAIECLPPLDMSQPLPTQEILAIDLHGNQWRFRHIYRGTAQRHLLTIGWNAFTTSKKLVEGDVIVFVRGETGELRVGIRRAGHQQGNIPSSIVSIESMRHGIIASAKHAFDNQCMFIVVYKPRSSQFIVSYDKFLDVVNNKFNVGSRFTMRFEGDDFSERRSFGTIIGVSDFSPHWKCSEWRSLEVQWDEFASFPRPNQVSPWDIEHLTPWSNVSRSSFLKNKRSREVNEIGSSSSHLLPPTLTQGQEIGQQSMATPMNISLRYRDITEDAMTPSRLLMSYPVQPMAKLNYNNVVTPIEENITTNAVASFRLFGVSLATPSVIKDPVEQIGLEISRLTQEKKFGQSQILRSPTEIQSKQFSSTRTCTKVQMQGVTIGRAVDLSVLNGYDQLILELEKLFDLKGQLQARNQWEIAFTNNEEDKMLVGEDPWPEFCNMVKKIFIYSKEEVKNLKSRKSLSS
UniProt Q9SKN5, sequence (whole entry, looked up): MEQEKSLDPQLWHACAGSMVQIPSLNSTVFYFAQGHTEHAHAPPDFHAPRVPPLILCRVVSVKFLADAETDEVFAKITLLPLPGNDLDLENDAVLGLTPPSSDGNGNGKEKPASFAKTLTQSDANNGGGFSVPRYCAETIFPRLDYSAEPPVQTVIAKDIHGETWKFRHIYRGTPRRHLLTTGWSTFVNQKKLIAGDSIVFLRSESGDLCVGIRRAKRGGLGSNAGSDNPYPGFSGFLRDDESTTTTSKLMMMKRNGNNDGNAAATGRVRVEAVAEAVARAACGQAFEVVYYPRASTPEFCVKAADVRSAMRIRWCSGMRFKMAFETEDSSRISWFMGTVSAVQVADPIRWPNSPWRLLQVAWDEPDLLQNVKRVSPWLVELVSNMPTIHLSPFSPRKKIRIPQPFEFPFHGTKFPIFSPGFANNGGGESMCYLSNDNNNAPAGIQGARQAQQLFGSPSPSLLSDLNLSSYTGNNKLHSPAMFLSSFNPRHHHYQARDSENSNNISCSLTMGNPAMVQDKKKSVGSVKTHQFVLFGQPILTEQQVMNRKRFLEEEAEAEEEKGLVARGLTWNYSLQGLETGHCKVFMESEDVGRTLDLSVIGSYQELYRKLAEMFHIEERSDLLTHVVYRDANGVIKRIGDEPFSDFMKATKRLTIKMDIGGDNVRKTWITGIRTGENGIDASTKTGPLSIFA
UniProt Q38829, sequence (whole entry, looked up): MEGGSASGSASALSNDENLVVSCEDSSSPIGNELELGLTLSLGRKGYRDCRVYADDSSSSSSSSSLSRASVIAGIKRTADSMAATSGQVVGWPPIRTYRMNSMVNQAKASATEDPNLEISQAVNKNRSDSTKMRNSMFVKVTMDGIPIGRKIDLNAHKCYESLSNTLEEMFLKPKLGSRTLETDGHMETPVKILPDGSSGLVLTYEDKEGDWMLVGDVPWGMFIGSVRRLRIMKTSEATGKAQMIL
UniProt O23661, sequence (whole entry, looked up): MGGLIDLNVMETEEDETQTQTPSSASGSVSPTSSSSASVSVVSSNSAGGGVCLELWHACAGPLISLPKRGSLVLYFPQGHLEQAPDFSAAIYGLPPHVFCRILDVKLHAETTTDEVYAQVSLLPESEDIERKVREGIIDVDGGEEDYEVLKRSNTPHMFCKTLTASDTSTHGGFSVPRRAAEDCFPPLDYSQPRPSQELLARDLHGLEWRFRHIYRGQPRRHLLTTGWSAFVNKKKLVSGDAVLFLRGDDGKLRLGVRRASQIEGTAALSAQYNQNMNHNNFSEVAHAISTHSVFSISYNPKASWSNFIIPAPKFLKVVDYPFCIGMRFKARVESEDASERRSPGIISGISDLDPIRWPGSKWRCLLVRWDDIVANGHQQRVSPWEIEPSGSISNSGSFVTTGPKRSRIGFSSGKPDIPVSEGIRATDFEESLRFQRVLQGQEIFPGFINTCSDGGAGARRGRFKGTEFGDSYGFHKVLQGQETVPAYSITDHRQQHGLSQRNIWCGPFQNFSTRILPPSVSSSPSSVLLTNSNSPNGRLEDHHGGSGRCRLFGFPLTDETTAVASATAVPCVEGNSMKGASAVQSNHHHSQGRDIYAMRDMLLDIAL
UniProt Q9M1R4, sequence (whole entry, looked up): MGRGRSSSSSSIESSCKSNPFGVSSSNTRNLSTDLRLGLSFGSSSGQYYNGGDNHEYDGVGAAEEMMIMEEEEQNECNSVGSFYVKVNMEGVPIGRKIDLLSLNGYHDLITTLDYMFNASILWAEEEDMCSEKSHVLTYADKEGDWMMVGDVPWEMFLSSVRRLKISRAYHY

Set 1
Target: ABI1, truncated, D143A, DHFR fusion (Arabidopsis thaliana)
Method: DHFR PCA, deep sequencing
Matrix: yeast
Setting: methotrexate growth selection, single substitutions
Together with: (+)-ABA 1.4 µM
Baseline: wild-type fitted maximum
Reading: higher = stronger binding
Parent: PYL1, truncated, DHFR fusion (Arabidopsis thaliana); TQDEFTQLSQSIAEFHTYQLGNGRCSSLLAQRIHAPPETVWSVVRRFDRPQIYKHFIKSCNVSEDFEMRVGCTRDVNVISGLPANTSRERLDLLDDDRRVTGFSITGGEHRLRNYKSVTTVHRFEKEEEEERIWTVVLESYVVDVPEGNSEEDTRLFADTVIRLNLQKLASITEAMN; partner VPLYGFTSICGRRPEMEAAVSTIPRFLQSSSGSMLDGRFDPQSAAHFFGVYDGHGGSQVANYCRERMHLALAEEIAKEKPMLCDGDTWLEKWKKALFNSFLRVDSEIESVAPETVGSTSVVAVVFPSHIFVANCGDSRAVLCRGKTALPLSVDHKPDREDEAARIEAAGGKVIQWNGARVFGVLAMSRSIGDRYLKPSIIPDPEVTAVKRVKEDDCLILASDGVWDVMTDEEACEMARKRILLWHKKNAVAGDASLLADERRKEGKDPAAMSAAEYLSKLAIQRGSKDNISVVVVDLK
| Substitution | relative binding score |
| --- | --- |
| E14S | 9.6% |
| R90H | 7.23% |
| K126T | 80.7% |
| E129D | 69.9% |
| E67W | 11.1% |
| S150E | 9.08% |
| E139S | 20.1% |
| F66Q | 40.4% |
| S26Q | 9.62% |
| V100L | 11.3% |
| E67F | 22.7% |
| V142H | 5.52% |
| F56D | -2.62% |
| E174G | -3.8% |
| P36V | 6.52% |
| H16C | -12.2% |
| R32L | 54.6% |
| V136E | -0.511% |
| N114T | 0.95% |

Set 2
Sequence: B1 (IAA6)
Method: two-hybrid
Reading: higher = firmer interaction
B1: IAA6 (Arabidopsis thaliana, UniProt Q38824); chain MAKEGLALEITELRLGLPGDNYSEISVCGSSKKKKRVLSDMMTSSALDTENENSVVSSVEDESLPVVKSQAVGWPPVCSYRRKKNNEEASKAIGYVKVSMDGVPYMRKIDLGSSNSYINLVTVLENLFGCLGIGVAKEGKKCEYIIIYEDKDRDWMLVGDVPWQMFKESCKRLRIVKRSDATGFGLQQD
| partner | conditions | how to read | positive tests |
| --- | --- | --- | --- |
| IAA31 (Arabidopsis thaliana, UniProt Q8H174) |  | baseline: out of 2 tests | 0 |
| IAA11 (Arabidopsis thaliana, UniProt Q38829) | weak activation fusion | baseline: out of 4 tests | 0 |
| ARF10 575-693 (Arabidopsis thaliana, UniProt Q9SKN5) |  | baseline: out of 4 tests | 0 |
| ETT (Arabidopsis thaliana, UniProt O23661) |  | baseline: out of 4 tests | 0 |
| ARF14 497-605 (Arabidopsis thaliana, UniProt Q9LQE8) |  | baseline: out of 4 tests | 0 |
| IAA30 (Arabidopsis thaliana, UniProt Q9M1R4) | weak activation fusion | baseline: out of 4 tests | 1 |

Set 3
Target: CCNA2, cyclin fold, Cln2 fusion (human)
Method: yeast growth competition, sequencing
Matrix: yeast
Setting: strong parent motif
Baseline: not given
Reading: higher = stronger binding
Parent: WEE1 docking peptide (human); HKTFRKLRLFDTP
| Substitution | normalised enrichment score |
| --- | --- |
| HKTFRKFRLFDTP [L7F] | 0.803 |
| HKTFRKLRHFDTP [L9H] | 0.293 |
| HKTFRKLRLFDQP [T12Q] | 1.72 |
| HKTFIKLRLFDTP [R5I] | 2.16 |
| HKTDRKLRLFDTP [F4D] | 0.626 |
| HKNFRKLRLFDTP [T3N] | 0.936 |
| HKTFRKLRNFDTP [L9N] | 1.31 |
| IKTFRKLRLFDTP [H1I] | 2.1 |
| HKTFRKLRLFDTS [P13S] | 1.28 |
| HKTHRKLRLFDTP [F4H] | 1.78 |
| HKLFRKLRLFDTP [T3L] | 1.68 |
| HKTFRKLRQFDTP [L9Q] | 2.82 |
| HKTFRKLVLFDTP [R8V] | 1.26 |
| HWTFRKLRLFDTP [K2W] | 1.88 |
| HKTFRKLRGFDTP [L9G] | 1.37 |
| CKTFRKLRLFDTP [H1C] | 1.7 |
| HKTFRKLRLFDTW [P13W] | 1 |

Set 4
Target: XBP1, bZIP domain (human)
Method: DHFR protein complementation
Matrix: yeast
Setting: single substitutions, most at no-binding floor
Baseline: wild-type JUN-FOS pair
Reading: higher = stronger binding
Parent: JUN, bZIP domain (human); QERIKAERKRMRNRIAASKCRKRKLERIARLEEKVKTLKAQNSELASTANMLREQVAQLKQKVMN; partner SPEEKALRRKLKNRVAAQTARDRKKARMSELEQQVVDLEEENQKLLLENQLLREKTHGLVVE
| Substitution | binding fitness [natural log] |
| --- | --- |
| A46T | -0.552 |
| K36W | -1.46 |
| A29D | -1.17 |
| E44G | -1.31 |
| L52S | -1.36 |
| K36S | -0.948 |
| S47I | -0.734 |
| I28P | -1.31 |
| E44D | -1.18 |
| A46E | -0.63 |
| M51D | -0.77 |
| E54M | -1.44 |
| M51L | -0.73 |
| L31R | -1.42 |
| I28F | -1.24 |
| E54K | -1.42 |
| L38T | -1.36 |
| L31K | -1.46 |
| S43K | -0.719 |
| T48N | -0.833 |
| K34C | -1.15 |
